# Earlier results as cited in several papers.
# Compare with care: the assays were run in different laboratories. ± marks the error that the study gave.
# UniProt Q8IVH8, sequence (whole entry, looked up): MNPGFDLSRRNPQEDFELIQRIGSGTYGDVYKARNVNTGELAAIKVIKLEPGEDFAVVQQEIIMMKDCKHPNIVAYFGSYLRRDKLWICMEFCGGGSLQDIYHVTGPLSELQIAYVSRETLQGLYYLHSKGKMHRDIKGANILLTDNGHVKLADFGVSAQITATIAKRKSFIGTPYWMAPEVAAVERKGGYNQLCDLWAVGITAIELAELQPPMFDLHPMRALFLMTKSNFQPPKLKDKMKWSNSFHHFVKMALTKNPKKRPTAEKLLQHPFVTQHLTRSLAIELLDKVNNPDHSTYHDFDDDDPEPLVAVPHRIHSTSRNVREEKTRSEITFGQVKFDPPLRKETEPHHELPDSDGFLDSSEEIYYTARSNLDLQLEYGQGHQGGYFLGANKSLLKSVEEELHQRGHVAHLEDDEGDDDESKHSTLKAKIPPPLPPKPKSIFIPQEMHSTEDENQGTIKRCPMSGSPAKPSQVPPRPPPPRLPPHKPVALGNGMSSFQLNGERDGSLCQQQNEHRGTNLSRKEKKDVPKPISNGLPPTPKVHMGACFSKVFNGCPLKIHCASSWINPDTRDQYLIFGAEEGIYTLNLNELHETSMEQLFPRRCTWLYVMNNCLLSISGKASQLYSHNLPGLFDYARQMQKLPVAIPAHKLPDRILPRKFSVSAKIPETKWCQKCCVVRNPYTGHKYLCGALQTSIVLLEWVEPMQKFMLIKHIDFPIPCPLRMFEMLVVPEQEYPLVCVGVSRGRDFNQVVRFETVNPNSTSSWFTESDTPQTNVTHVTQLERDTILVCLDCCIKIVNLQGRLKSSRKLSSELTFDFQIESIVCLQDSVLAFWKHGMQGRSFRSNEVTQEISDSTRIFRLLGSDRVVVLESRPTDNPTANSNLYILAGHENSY
Compound,target or system,assay,test system,setting,how to read,endpoint,result
CC(C)(O/N=C(\C(=O)N[C@@H]1C(=O)N2C(C(=O)[O-])=C(C[n+]3ccccc3)CS[C@H]12)c1csc(N)n1)C(=O)O,Enterobacter cloacae,,clinical isolate RKI-No_33/16,,,MIC,4 µg/mL
Cc1ccc(NC(=O)c2ccc(CN3CCN(C)CC3)cc2)cc1Nc1nc(-c2cccnc2)cs1,,,plasma,estimated,,fraction unbound,0.07
CCOC(=O)/C=C\C(=O)OCC,,,plasma,literature value,,fraction unbound,0.393
NC(=O)N1c2ccccc2CC(O)c2ccccc21 (centres unmarked),,,plasma,,,fraction unbound,0.6
Cc1c(C(=O)O)ccc2c3n(nc12)[C@@H]1[C@H](C3)N(CC2CC2)[C@@]2(C(=O)Nc3cc(Cl)ccc32)[C@H]1c1cccc(Cl)c1F,,,human glioblastoma tissue,,,fraction unbound,0.0017
Cc1nn(C)cc1S(=O)(=O)NC(=O)c1ccc(-n2ccc(OCC(C)(C)C(F)(F)F)n2)nc1N1C[C@@H](C)CC1(C)C,,,microsomal incubation,CYP2C9 Ki,,fraction unbound,0.399
Nc1cc(C(F)(F)F)c(-c2nc(N3CCOCC3)nc(N3CCOCC3)n2)cn1,"MAP4K3 (Homo sapiens, UniProt Q8IVH8)",enzyme activity,,10 µM,baseline: untreated,remaining activity,71%
CC(C)(C)c1cc(O)ccc1O,,,plasma,literature value,,fraction unbound,0.05
CNC(C)C1CCC(N)C(OC2C(N)CC(N)C(OC3OCC(C)(O)C(NC)C3O)C2O)O1 (centres unmarked),Acinetobacter baumannii,,clinical isolate RKI-No_12/16,,,MIC,> 8 µg/mL
C#Cc1cccc(Nc2ncnc3cc(OCCOC)c(OCCOC)cc23)c1,,,plasma,,,fraction unbound,0.045
C=CC[C@@H]1/C=C(\C)C[C@H](C)C[C@H](OC)[C@H]2O[C@@](O)(C(=O)C(=O)N3CCCC[C@H]3C(=O)O[C@H](/C(C)=C/[C@@H]3CC[C@@H](O)[C@H](OC)C3)[C@H](C)[C@@H](O)CC1=O)[C@H](C)C[C@@H]2OC,,,plasma,,,fraction unbound,0.012 ± 0.0012
C[C@@H](Oc1ccc(S(C)(=O)=O)cc1C(=O)N1C[C@@H]2C[C@]2(c2cc(C(F)(F)F)on2)C1)C(F)(F)F,,,plasma,,,fraction unbound,0.196
CN(CCOc1ccc(CC2SC(=O)NC2=O)cc1)c1ccccn1 (centres unmarked),,,plasma,literature value,,fraction unbound,0.002
CC(C)(CO)c1cc2cc(NC(=O)C3(c4ccc5c(c4)OC(F)(F)O5)CC3)c(F)cc2n1C[C@@H](O)CO,,,microsomal incubation,CYP2C19 Ki,,fraction unbound,0.876
O=C(c1ccc(C#Cc2cccc(F)c2)nc1)N1CCC(O)CC1,,,brain,,,fraction unbound,0.0956
Cc1cc(C[C@@H](NC(=O)N2CCC(c3cc4ccccc4[nH]c3=O)CC2)C(=O)N2CCN(C3CCN(C)CC3)CC2)cc2cn[nH]c12,,,plasma,in vitro,,fraction unbound,0.335
CCc1ccc(CCOc2ccc(CC3SC(=O)NC3=O)cc2)nc1 (centres unmarked),,,plasma,literature value,,fraction unbound,0.01

# For quick reference, copied from above:
Compound,target or system,assay,test system,setting,how to read,endpoint,result
CCOC(=O)/C=C\C(=O)OCC,,,plasma,literature value,,fraction unbound,0.393
NC(=O)N1c2ccccc2CC(O)c2ccccc21 (centres unmarked),,,plasma,,,fraction unbound,0.6
Cc1c(C(=O)O)ccc2c3n(nc12)[C@@H]1[C@H](C3)N(CC2CC2)[C@@]2(C(=O)Nc3cc(Cl)ccc32)[C@H]1c1cccc(Cl)c1F,,,human glioblastoma tissue,,,fraction unbound,0.0017
